Measured values pooled from the literature.
Lines come from different studies, so protocols differ. Numbers after ± are the reported error.

N=C(N)NCCC[C@@H]1NC(=O)[C@H](CCCCNC(=O)CN2CCN(CC(=O)O)CCN(CC(=O)O)CCN(CC(=O)O)CC2)NC(=O)[C@@H](Cc2ccc(O)cc2)NC(=O)[C@H](CC(=O)O)NC(=O)CNC1=O [copper-64 labelled] — tissue uptake (64Cu microPET; female nude mice, U-87 MG xenograft, liver; intravenous, 4 h): 3.59 ± 0.87 %ID/g
CC(C)C[C@@H](NC(=O)[C@@H](CCC(=O)O)NC(=O)[C@@H](CC(C)C)NC(=O)[C@@H](CC(C)C)NC(=O)[C@@H](CC(C)C)NC(=O)[C@H](NC(=O)[C@@H](CCC(=O)O)NC(=O)[C@H](NC(=O)[C@H]1CCCN1C(=O)[C@@H](Cc1ccccc1)NC(=O)[C@@H](CC(C)C)NC(=O)[C@@H](Cc1c[nH]c2ccccc12)NC(=O)[C@@H](CCC(=O)O)NC(=O)[C@@H](CC(C)C)NC(=O)[C@@H](Cc1ccc(O)cc1)NC(=O)[C@@H](CCCNC(=N)N)NC(=O)[C@@H](C)NC(=O)[C@@H](Cc1c[nH]c2ccccc12)NC(=O)[C@H]1CCCN1C(=O)[C@@H](CC(N)=O)NC(=O)[C@@H](CCC(N)=O)NC(=O)[C@@H](CCC(=O)O)NC(=O)[C@@H](CCC(=O)O)NC(=O)[C@@H](CS)NC(=O)[C@@H](C)NC(=S)Nc1ccc(CC2CN(CC(=O)O)CCN(CC(=O)O)CCN2CC(=O)O)cc1)[C@H](C)O)[C@H](C)O)C(=O)O (some centres unmarked) [copper-64 labelled] — tissue uptake (BALB/c mice, female, 4T1 orthotopic tumour, large intestine; intravenous, 4 h): 7.78 ± 0.61 %ID/g
CCCC[C@H](NC(=O)CCCCCCCNC(=O)CN1CCN(CC(=O)O)CCN(CC(=O)O)CC1)C(=O)N[C@H]1CC(=O)NCCCC[C@@H](C(N)=O)NC(=O)[C@H](Cc2c[nH]c3ccccc23)NC(=O)[C@H](CCCNC(=N)N)NC(=O)[C@@H](Cc2ccccc2)NC(=O)[C@H](Cc2c[nH]cn2)NC1=O [copper-64 labelled] — tissue uptake (C57 mice, heart; intravenous, 0.37 MBq, 24 h): 0.22 ± 0.04 %ID/g
CN1C(=O)[C@@H](Cc2ccc(O)cc2)NC(=O)CNC(=O)[C@H](Cc2ccc3ccccc3c2)NC(=O)[C@H](CCCNC(=N)N)NC(=O)[C@H]1CCCNC(=O)c1ccc(CNC(=O)CN2CCN(CC(=O)O)CCN(CC(=O)O)CCN(CC(=O)O)CC2)cc1 [gallium-68 labelled] — tissue uptake (SCID mice, lymphoma xenograft, liver; intravenous, 2 h): 0.8 ± 0.1 %ID/g
CCCC[C@H](NC(=O)CNC(=O)CNC(=O)CN1CCN(CC(=O)O)CCN(CC(=O)O)CC1)C(=O)N[C@H]1CC(=O)NCCCC[C@@H](C(N)=O)NC(=O)[C@H](Cc2c[nH]c3ccccc23)NC(=O)[C@H](CCCNC(=N)N)NC(=O)[C@@H](Cc2ccccc2)NC(=O)[C@H](Cc2c[nH]cn2)NC1=O [technetium-99m labelled] — tissue uptake (C57 mice, intestines; intravenous, 0.037 MBq, 0.5 h): 2.41 ± 0.31 %ID
CC(C)C[C@@H](NC(=O)[C@@H](CC(C)C)NC(=O)[C@@H](CC(=O)O)NC(=O)[C@@H](CC(C)C)NC(=O)[C@@H](CC(C)C)NC(=O)[C@@H](CC(C)C)NC(=O)[C@H](NC(=O)[C@@H](CC(=O)O)NC(=O)[C@H](NC(=O)[C@H]1CCCN1C(=O)[C@@H](Cc1ccccc1)NC(=O)[C@@H](CC(C)C)NC(=O)[C@@H](CC(C)C)NC(=O)[C@@H](CC(=O)O)NC(=O)[C@@H](CC(C)C)NC(=O)[C@@H](Cc1ccc(O)cc1)NC(=O)[C@@H](C)NC(=O)[C@@H](CCCNC(=N)N)NC(=O)[C@@H](Cc1c[nH]c2ccccc12)NC(=O)[C@H]1CCCN1C(=O)[C@@H](CC(N)=O)NC(=O)[C@@H](CCC(N)=O)NC(=O)[C@@H](CC(=O)O)NC(=O)[C@@H](CC(=O)O)NC(=O)[C@@H](CS)NC(=O)[C@@H](C)NC(=S)Nc1ccc(CC2CN(CC(=O)O)CCN(CC(=O)O)CCN2CC(=O)O)cc1)[C@H](C)O)[C@H](C)O)C(=O)N[C@H](Cc1c[nH]c2ccccc12)C(=O)O (some centres unmarked) [copper-64 labelled] — tissue uptake (BALB/c mice, female, 4T1 orthotopic tumour, small intestine; intravenous, 4 h): 0.32 ± 0.042 %ID/g
Cc1cc(O)cc(C)c1C[C@H](NC(=O)[C@@H]1CCCN1C(=O)[C@H](CCCNC(=N)N)NC(=O)[C@H](CCCNC(=N)N)N(C)C(=O)[C@@H]1CCCN1C(=O)[C@H](CCCCN)NC(=O)CCNC(=O)CN1CCN(CC(=O)O)CCN(CC(=O)O)CCN(CC(=O)O)CC1)C(=O)N[C@H](C(=O)N[C@@H](CC(C)C)C(=O)O)C(C)(C)C [lutetium-177 labelled] — tissue uptake (CF-1 mice, kidney; dose not given, 1 h): 13.1 ± 0.18 %ID/g
N=C(N)NCCC[C@@H]1NC(=O)[C@H](CCCCNC(=O)CNC(=O)CNC(=O)CNC(=O)CC[C@H](NC(=O)CNC(=O)CNC(=O)CNC(=O)CN2CCN(CC(=O)O)CCN(CC(=O)O)CCN(CC(=O)O)CC2)C(=O)NCC(=O)NCC(=O)NCC(=O)NCCCC[C@@H]2NC(=O)[C@@H](Cc3ccccc3)NC(=O)[C@H](CC(=O)O)NC(=O)CNC(=O)[C@H](CCCNC(=N)N)NC2=O)NC(=O)[C@@H](Cc2ccccc2)NC(=O)[C@H](CC(=O)O)NC(=O)CNC1=O [indium-111 labelled] — tissue uptake (female athymic nu/nu mice, heart; intravenous, 72 h): 0.15 ± 0.04 %ID/g
CC(C)C[C@@H](NC(=O)[C@@H](CCC(=O)O)NC(=O)[C@@H](CC(C)C)NC(=O)[C@@H](CC(C)C)NC(=O)[C@@H](CC(C)C)NC(=O)[C@H](NC(=O)[C@@H](CCC(=O)O)NC(=O)[C@H](NC(=O)[C@H]1CCCN1C(=O)[C@@H](Cc1ccccc1)NC(=O)[C@@H](CC(C)C)NC(=O)[C@@H](Cc1c[nH]c2ccccc12)NC(=O)[C@@H](CCC(=O)O)NC(=O)[C@@H](CC(C)C)NC(=O)[C@@H](Cc1ccc(O)cc1)NC(=O)[C@@H](CCCNC(=N)N)NC(=O)[C@@H](C)NC(=O)[C@@H](Cc1c[nH]c2ccccc12)NC(=O)[C@H]1CCCN1C(=O)[C@@H](CC(N)=O)NC(=O)[C@@H](CCC(N)=O)NC(=O)[C@@H](CCC(=O)O)NC(=O)[C@@H](CCC(=O)O)NC(=O)[C@@H](CSC1CC(=O)N(CCNC(=O)CN2CCN(CC(=O)O)CCN(CC(=O)O)CC2)C1=O)NC(=O)[C@@H](C)N)[C@H](C)O)[C@H](C)O)C(=O)O (some centres unmarked) [fluorine-18 labelled] — tissue uptake (BALB/c mice, female, 4T1 orthotopic tumour, small intestine; intravenous, 4 h): 0.91 ± 0.03 %ID/g
N=C(N)NCCC[C@@H]1NC(=O)[C@H](CCCCNC(=O)CNC(=O)CNC(=O)CNC(=O)CC[C@H](NC(=O)CNC(=O)CNC(=O)CNC(=O)CC[C@H](NC(=O)CN2CCN(CC(=O)O)CCN(CC(=O)O)CCN(CC(=O)O)CC2)C(=O)NCC(=O)NCC(=O)NCC(=O)N[C@@H](CCC(=O)NCC(=O)NCC(=O)NCC(=O)NCCCC[C@@H]2NC(=O)[C@@H](Cc3ccccc3)NC(=O)[C@H](CC(=O)O)NC(=O)CNC(=O)[C@H](CCCNC(=N)N)NC2=O)C(=O)NCC(=O)NCC(=O)NCC(=O)NCCCC[C@@H]2NC(=O)[C@@H](Cc3ccccc3)NC(=O)[C@H](CC(=O)O)NC(=O)CNC(=O)[C@H](CCCNC(=N)N)NC2=O)C(=O)NCC(=O)NCC(=O)NCC(=O)NCCCC[C@@H]2NC(=O)[C@@H](Cc3ccccc3)NC(=O)[C@H](CC(=O)O)NC(=O)CNC(=O)[C@H](CCCNC(=N)N)NC2=O)NC(=O)[C@@H](Cc2ccccc2)NC(=O)[C@H](CC(=O)O)NC(=O)CNC1=O [indium-111 labelled] — tissue uptake (female athymic nu/nu mice, brain; intravenous, 72 h): 0.1 ± 0.04 %ID/g
CCCC[C@H](NC(=O)COCCOCCNC(=O)CN1CCN(CC(=O)O)CCN(CC(=O)O)CC1)C(=O)N[C@H]1CC(=O)NCCCC[C@@H](C(N)=O)NC(=O)[C@H](Cc2c[nH]c3ccccc23)NC(=O)[C@H](CCCNC(=N)N)NC(=O)[C@@H](Cc2ccccc2)NC(=O)[C@H](Cc2c[nH]cn2)NC1=O [copper-64 labelled] — tissue uptake (C57 mice, spleen; intravenous, 0.37 MBq, 4 h): 0.41 ± 0.25 %ID/g

Some of these lines once more:
CCCC[C@H](NC(=O)CCCCCCCNC(=O)CN1CCN(CC(=O)O)CCN(CC(=O)O)CC1)C(=O)N[C@H]1CC(=O)NCCCC[C@@H](C(N)=O)NC(=O)[C@H](Cc2c[nH]c3ccccc23)NC(=O)[C@H](CCCNC(=N)N)NC(=O)[C@@H](Cc2ccccc2)NC(=O)[C@H](Cc2c[nH]cn2)NC1=O [copper-64 labelled] — tissue uptake (C57 mice, heart; intravenous, 0.37 MBq, 24 h): 0.22 ± 0.04 %ID/g
